Assay results collected from several papers.
Protocols differ between the studies behind these lines. ± gives the spread as reported.
B1: protein (Thermotoga neapolitana, UniProt B9K712); chain MKMLYDLAKKRKTVRRFKKEKPPLEDLIYSLKVANEAPSGMNAQPWRFLIVEDEKLKGQIRRVCERSEKTFYENVRGRLKEWLDEKRFTWRKPFLKEAPYLLLVFSEKSAPYSRESVWLAVGYLLLALEEKGLGSVPYTPPDFREVEKLVNTPSELRLEVILPVGYPDDPKPKYPRNEVIVRYNTF
B2: PPIP5K2 (Homo sapiens, UniProt O43314); chain MSEAPRFFVGPEDTEINPGNYRHFFHHADEDDEEEDDSPPERQIVVGICSMAKKSKSKPMKEILERISLFKYITVVVFEEEVILNEPVENWPLCDCLISFHSKGFPLDKAVAYAKLRNPFVINDLNMQYLIQDRREVYSILQAEGILLPRYAILNRDPNNPKECNLIEGEDHVEVNGEVFQKPFVEKPVSAEDHNVYIYYPTSAGGGSQRLFRKIGSRSSVYSPESNVRKTGSYIYEEFMPTDGTDVKVYTVGPDYAHAEARKSPALDGKVERDSEGKEVRYPVILNAREKLIAWKVCLAFKQTVCGFDLLRANGQSYVCDVNGFSFVKNSMKYYDDCAKILGNIVMRELAPQFHIPWSIPLEAED
B3: enzyme (Streptomyces venezuelae, UniProt Q9ZGI2); chain SGADTGAGAGMFRALFRQAVEDDRYGEFLDVLAEASAFRPQFASPEACSERLDPVLLAGGPTDRAEGRAVLVGCTGTAANGGPHEFLRLSTSFQEERDFLAVPLPGYGTGTGTGTALLPADLDTALDAQARAILRAAGDAPVVLLGHSGGALLAHELAFRLERAHGAPPAGIVLVDPYPPGHQEPIEVWSRQLGEGLFAGELEPMSDARLLAMGRYARFLAGPRPGRSSAPVLLVRASEPLGDWQEERGDWRAHWDLPHTVADVPGDHFTMMRDHAPAVAEAVLSWLDAIEGIEGAGK

CC(C)C[C@H](NC(=O)[C@@H](CCCCNC(=O)CCCCCNC(=O)CN1CCN(CC(=O)O)CCN(CC(=O)O)CCN(CC(=O)O)CC1)NC(=O)[C@H](Cc1ccc(O)cc1)NC(=O)[C@H](CO)NC(=O)[C@H](Cc1c[nH]c2ccccc12)NC(=O)[C@H](Cc1cnc[nH]1)NC(=O)[C@@H]1CCC(=O)N1)C(=O)N[C@@H](CCCNC(=N)N)C(=O)N1CCC[C@H]1C(=O)NCC(N)=O [indium-111 labelled] has a tissue uptake of 0.11 ± 0.03 %ID/g (female athymic nude mouse, lung; intravenous, 0.037 MBq, 24 h).
With CCCC[C@H](NC(=O)CNC(=O)CNC(=O)CN1CCN(CC(=O)O)CCN(CC(=O)O)CC1)C(=O)N[C@H]1CC(=O)NCCCC[C@@H](C(N)=O)NC(=O)[C@H](Cc2c[nH]c3ccccc23)NC(=O)[C@H](CCCNC(=N)N)NC(=O)[C@@H](Cc2ccccc2)NC(=O)[C@H](Cc2c[nH]cn2)NC1=O [technetium-99m labelled] the tissue uptake was 16.1 ± 4.47 %ID/g (C57 mouse, tumor; iv, 0.037 MBq, 0.5 h).
For CN1C(=O)[C@@H](Cc2ccc(O)cc2)NC(=O)CNC(=O)[C@H](Cc2ccc3ccccc3c2)NC(=O)[C@H](CCCNC(=N)N)NC(=O)[C@H]1CCCNC(=O)c1ccc(CNC(=O)CN2CCN(CC(=O)O)CCN(CC(=O)O)CCN(CC(=O)O)CC2)cc1 [gallium-68 labelled], “absorbed dose coefficient” read 0.0147 mGy/MBq (extrapolated to adult male; C57BL/6 mice, adrenals).
The tissue uptake of CCCC[C@H](NC(=O)CNC(=O)CNC(=O)CN1CCN(CC(=O)O)CCN(CC(=O)O)CCN(CC(=O)O)CC1)C(=O)N[C@H]1CC(=O)NCCCC[C@@H](C(N)=O)NC(=O)[C@H](Cc2c[nH]c3ccccc23)NC(=O)[C@H](CCCNC(=N)N)NC(=O)[C@@H](Cc2ccccc2)NC(=O)[C@H](Cc2c[nH]cn2)NC1=O [lutetium-177 labelled] is reported as 1.61 ± 0.25 %ID/g (C57 mouse, female, liver; intravenous, 0.037 MBq, 0.5 h).
`B1 (protein)` gave a kcat/Km of 600000 ± 517000 M⁻¹ s⁻¹ (N[C@@H](Cc1ccc(O)c(Br)c1)C(=O)O; steady-state kinetics; pH 7.4, 60 °C).
N=C(N)NCCC[C@H](NC(=O)[C@H](CCCNC(=N)N)NC(=O)[C@H](CCCNC(=N)N)NC(=O)[C@H](CCCNC(=N)N)NC(=O)[C@H](CCCNC(=N)N)NC(=O)[C@H](CCCNC(=N)N)NC(=O)[C@H](CCCNC(=N)N)NC(=O)[C@H](CCCNC(=N)N)NC(=O)CN(CCN(CCN(CC(=O)O)CC(=O)O)CC(=O)O)CC(=O)O)C(=O)O: cellular uptake “increased” (NIH/3T3 cells; item: Gd; 0.10 mM, 4 h; relative to: reference compounds).
CCCC[C@H](NC(=O)COCCOCCNC(=O)CN1CCN(CC(=O)O)CCN(CC(=O)O)CC1)C(=O)N[C@H]1CC(=O)NCCCC[C@@H](C(N)=O)NC(=O)[C@H](Cc2c[nH]c3ccccc23)NC(=O)[C@H](CCCNC(=N)N)NC(=O)[C@@H](Cc2ccccc2)NC(=O)[C@H](Cc2c[nH]cn2)NC1=O [copper-64 labelled] has a tissue uptake of 0.01 ± 0.01 %ID/g (C57 mice, muscle; intravenous, 0.37 MBq, 24 h).
`B2 (PPIP5K2)` gave a kcat/Km of 17000 M⁻¹ s⁻¹ (O=P(O)(O)O[C@@H]1[C@@H](OP(=O)(O)O)[C@@H](OP(=O)(O)O)[C@@H](OP(=O)(O)OP(=O)(O)O)[C@H](OP(=O)(O)O)[C@H]1OP(=O)(O)O; steady-state kinetics).
The kcat/Km of `B3 (enzyme)` is reported as 418.3 ± 3.17 M⁻¹ s⁻¹ (CC[C@@H](O)[C@H](C)/C=C/C(=O)[C@H](C)C[C@H](C)[C@H](O)[C@@H](C)C(=O)SCCNC(C)=O; steady-state kinetics).

A few entries again:
CC(C)C[C@H](NC(=O)[C@@H](CCCCNC(=O)CCCCCNC(=O)CN1CCN(CC(=O)O)CCN(CC(=O)O)CCN(CC(=O)O)CC1)NC(=O)[C@H](Cc1ccc(O)cc1)NC(=O)[C@H](CO)NC(=O)[C@H](Cc1c[nH]c2ccccc12)NC(=O)[C@H](Cc1cnc[nH]1)NC(=O)[C@@H]1CCC(=O)N1)C(=O)N[C@@H](CCCNC(=N)N)C(=O)N1CCC[C@H]1C(=O)NCC(N)=O [indium-111 labelled] has a tissue uptake of 0.11 ± 0.03 %ID/g (female athymic nude mouse, lung; intravenous, 0.037 MBq, 24 h).
